Measurements of several laboratories.
Parts stem from different laboratories: compare values within a part only.
UniProt P35372, sequence (whole entry, looked up): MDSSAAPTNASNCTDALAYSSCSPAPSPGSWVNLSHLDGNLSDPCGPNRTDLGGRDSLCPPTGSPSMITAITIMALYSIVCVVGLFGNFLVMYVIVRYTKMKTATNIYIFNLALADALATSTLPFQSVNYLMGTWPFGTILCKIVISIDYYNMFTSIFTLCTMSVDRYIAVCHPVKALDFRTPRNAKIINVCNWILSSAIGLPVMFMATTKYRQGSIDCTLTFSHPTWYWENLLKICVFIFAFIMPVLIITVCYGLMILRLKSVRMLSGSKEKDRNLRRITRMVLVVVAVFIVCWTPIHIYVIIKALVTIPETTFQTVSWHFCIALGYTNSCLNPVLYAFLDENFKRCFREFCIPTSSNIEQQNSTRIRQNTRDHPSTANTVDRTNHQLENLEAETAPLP
UniProt P41143, sequence (whole entry, looked up): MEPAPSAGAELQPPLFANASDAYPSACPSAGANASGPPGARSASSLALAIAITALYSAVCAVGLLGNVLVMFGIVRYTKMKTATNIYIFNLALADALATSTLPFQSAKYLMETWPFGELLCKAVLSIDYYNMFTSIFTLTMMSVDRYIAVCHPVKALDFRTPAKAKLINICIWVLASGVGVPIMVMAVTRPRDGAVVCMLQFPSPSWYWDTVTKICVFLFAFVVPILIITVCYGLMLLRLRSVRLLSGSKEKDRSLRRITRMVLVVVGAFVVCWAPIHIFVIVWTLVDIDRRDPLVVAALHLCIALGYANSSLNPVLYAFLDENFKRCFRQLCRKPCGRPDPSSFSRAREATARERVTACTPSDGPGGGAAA
UniProt P9WI81, sequence (whole entry, looked up): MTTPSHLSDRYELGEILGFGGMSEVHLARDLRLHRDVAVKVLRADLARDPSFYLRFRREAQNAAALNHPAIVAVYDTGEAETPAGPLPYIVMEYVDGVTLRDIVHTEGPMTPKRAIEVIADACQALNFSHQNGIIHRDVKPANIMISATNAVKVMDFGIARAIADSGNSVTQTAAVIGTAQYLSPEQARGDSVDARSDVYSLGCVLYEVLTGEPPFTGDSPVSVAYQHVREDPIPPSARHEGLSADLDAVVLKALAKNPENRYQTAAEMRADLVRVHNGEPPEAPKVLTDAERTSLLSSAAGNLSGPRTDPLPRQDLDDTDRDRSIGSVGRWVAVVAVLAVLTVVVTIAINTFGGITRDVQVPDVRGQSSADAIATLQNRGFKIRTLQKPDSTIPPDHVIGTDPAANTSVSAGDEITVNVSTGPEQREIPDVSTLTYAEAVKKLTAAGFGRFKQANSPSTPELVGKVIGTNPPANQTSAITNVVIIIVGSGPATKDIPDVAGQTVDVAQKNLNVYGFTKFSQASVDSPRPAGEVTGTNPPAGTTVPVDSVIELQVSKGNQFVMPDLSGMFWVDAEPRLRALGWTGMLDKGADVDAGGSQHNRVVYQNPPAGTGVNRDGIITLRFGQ
UniProt P21918, sequence (whole entry, looked up): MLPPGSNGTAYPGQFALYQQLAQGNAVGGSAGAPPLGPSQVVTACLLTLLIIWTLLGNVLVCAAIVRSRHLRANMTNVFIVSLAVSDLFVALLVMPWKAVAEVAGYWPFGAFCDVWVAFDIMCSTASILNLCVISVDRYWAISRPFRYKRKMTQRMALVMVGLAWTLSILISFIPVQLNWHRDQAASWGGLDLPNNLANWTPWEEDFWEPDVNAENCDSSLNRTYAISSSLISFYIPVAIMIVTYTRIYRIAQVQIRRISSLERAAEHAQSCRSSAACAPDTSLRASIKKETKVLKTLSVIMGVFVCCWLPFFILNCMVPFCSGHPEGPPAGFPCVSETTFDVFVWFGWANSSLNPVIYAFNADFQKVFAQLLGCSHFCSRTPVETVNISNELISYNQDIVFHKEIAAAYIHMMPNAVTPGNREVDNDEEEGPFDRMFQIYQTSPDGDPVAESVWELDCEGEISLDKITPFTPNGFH
UniProt P08908, sequence (whole entry, looked up): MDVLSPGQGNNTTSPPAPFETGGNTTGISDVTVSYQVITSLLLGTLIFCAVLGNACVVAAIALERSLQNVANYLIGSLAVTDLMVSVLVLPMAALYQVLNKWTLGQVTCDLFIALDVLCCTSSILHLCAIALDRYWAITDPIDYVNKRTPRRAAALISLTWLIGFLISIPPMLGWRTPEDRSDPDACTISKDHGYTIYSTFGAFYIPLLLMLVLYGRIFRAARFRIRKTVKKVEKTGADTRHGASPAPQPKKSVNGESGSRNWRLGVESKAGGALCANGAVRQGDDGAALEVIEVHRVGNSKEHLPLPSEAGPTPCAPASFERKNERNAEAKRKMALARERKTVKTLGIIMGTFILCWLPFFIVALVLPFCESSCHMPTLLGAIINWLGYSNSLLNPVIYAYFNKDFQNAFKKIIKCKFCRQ

Block 1
Compound: CO[C@@H](C)c1c(Nc2ccc([C@H](N(C)C(=O)C3CCS(=O)(=O)CC3)C(F)(F)F)cc2)cnc2cc(Cl)nn12
Tested at: 10 µM
Quantity: inhibition
target = OPRD1 (Homo sapiens, UniProt P41143); assay = ligand displacement; result = -26.4%
target = OPRM1 (Homo sapiens, UniProt P35372); assay = ligand displacement; result = 6.13%
target = SLC6A4 (Homo sapiens, UniProt P31645); assay = cell-free assay; result = 11.3%
target = DRD5 (Homo sapiens, UniProt P21918); assay = ligand displacement; result = 9.7%
target = HTR1A (Homo sapiens, UniProt P08908); assay = ligand displacement; result = -16.5%

Block 2
Target: DNA polymerase theta, ATPase domain (POLQ, Homo sapiens, UniProt O75417)
UniProt O75417, sequence (whole entry, unmodified, looked up): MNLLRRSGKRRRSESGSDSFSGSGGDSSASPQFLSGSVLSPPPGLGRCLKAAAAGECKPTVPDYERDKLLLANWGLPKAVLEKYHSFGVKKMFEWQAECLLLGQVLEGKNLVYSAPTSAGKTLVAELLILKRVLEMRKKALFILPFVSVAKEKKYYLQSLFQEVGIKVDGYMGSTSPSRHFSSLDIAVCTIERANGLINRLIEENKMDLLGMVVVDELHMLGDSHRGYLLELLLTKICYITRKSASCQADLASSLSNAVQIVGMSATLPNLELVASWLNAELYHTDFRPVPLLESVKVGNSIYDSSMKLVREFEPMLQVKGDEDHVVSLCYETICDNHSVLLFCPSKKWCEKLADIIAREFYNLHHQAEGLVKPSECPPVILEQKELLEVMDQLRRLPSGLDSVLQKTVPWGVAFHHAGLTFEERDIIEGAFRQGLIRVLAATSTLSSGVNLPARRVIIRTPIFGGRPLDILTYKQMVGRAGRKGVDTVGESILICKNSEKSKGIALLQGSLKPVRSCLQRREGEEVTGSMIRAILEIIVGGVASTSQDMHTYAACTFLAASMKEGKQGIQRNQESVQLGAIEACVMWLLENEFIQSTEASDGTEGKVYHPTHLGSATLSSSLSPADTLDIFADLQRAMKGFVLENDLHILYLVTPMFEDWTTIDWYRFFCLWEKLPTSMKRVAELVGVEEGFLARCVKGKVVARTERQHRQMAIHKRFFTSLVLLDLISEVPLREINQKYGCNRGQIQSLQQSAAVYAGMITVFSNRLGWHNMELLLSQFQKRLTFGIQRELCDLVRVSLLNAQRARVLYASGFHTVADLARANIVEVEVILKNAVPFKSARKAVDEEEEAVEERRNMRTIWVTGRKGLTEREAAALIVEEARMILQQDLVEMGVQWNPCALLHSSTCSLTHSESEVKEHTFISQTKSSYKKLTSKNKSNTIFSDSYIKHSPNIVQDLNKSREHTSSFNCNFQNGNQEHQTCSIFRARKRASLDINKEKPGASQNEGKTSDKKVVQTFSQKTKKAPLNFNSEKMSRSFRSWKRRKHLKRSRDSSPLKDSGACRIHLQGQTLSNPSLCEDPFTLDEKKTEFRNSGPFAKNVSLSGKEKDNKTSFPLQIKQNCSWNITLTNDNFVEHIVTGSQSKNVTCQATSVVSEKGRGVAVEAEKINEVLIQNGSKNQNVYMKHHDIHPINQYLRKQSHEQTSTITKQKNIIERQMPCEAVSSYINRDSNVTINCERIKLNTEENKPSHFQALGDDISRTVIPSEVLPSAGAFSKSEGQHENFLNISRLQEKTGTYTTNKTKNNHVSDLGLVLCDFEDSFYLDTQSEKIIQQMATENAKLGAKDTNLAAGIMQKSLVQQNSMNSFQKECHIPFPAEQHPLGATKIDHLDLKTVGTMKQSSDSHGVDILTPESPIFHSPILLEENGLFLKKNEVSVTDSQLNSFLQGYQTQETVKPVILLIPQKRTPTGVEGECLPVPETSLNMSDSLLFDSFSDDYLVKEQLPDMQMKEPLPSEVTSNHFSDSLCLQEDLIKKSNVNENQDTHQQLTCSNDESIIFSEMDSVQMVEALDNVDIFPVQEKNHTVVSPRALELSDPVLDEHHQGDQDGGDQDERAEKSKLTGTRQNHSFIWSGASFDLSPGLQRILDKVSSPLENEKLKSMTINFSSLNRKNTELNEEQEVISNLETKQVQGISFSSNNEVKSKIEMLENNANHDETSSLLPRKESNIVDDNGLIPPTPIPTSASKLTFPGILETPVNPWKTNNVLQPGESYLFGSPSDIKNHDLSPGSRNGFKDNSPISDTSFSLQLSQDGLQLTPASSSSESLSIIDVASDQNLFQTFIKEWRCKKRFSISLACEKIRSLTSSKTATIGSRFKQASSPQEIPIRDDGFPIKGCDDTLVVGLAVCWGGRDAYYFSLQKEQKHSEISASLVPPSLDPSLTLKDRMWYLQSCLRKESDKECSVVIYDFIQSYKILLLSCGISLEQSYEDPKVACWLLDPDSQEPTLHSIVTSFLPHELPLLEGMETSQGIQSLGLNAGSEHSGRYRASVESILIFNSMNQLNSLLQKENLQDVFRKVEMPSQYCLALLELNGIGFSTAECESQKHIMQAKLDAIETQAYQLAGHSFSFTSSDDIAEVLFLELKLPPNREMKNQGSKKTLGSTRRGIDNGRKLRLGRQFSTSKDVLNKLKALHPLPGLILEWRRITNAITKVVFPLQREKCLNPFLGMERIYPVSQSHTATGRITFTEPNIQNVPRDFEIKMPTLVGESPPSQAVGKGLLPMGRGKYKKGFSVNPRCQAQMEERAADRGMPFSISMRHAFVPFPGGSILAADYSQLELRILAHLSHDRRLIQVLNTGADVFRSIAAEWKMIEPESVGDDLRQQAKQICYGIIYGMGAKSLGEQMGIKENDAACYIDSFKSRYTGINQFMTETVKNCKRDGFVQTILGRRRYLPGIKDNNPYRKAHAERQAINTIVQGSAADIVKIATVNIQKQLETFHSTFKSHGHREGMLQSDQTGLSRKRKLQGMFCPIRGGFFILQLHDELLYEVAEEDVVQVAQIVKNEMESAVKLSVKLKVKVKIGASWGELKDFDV
Read-out: enzyme activity
Mode: inhibitor
Tested at: 77 µM
Quantity: remaining activity
Compound = Clc1cc(I)cc(Cl)c1NC1=NCCN1; result = 138%
Compound = O=c1[nH]c2ccccc2n1C1CCN(Cc2ccc(-c3[nH]c4cc5ncnc5cc4nc3-c3ccccc3)cc2)CC1; result = 76.6%
Compound = O=C(N[C@H]1CN2CCC1CC2)c1ccc(Cl)cc1; result = 103%
Compound = COc1ccc2c(c1O)-c1cccc3c1[C@@H](C2)N(C)CC3; result = 103%

Single results of other studies
Structure (SMILES) = CC(CCc1ccccc1)NC(C)C(O)c1ccc(O)cc1 (centres unmarked); tested on = HaCaT; conditions = 100 µM, 60 h; quantity = viability; result = 79.2%
Structure (SMILES) = C=CC(=O)N1CCC([C@@H]2CCNc3c(C(N)=O)c(-c4ccc(Oc5ccccc5)cc4)nn32)CC1; tested on = pknB (Mycobacterium tuberculosis, UniProt P9WI81); assay = enzyme activity, inhibitor; conditions = 1 µM; quantity = inhibition; result = 0%

Some of these lines once more (block 1):
target = OPRD1 (Homo sapiens, UniProt P41143); assay = ligand displacement; result = -26.4%
